# Earlier results as cited in several papers.
# ± marks the error that the study gave.
Substance,target or system,test,test system,setting,how to read,measurement,value
GGVVIA,differentiated PC-12,"Aβ42-induced toxicity, inhibitor, MTT",peptide,"10-fold excess over Aβ42, 15 h, together with: Aβ42 5 µM",,viability,73 ± 2%
O=C1c2cccc3c2[C@H](CCC3)CN1[C@@H]1CN2CCC1CC2,,,"patients, plasma","oral, dose not given, netupitant-palonosetron combination, together with: docetaxel 75 to 100 mg/m^2 IV",,CL/F,7 L/h
Oc1cccc(-c2nc(N3CCOCC3)c3oc4ncccc4c3n2)c1,phosphatidylinositol 5-phosphate 4-kinase type II beta,"enzyme activity, inhibitor",,together with: 10 µM ATP,,IC50,> 100 µM
C[C@]12CC[C@@H]3c4ccc(O)cc4CC[C@H]3[C@@H]1CC[C@@H]2OC(=O)c1ccccc1,HT-22,cell protection,,together with: glutamate 10 mM,,EC50,8.29 µM
CCCCCCCCCCCCCC(=S)NCCCCC(NC(=O)OCc1ccccc1)C(=O)Nc1ccccc1 (stereo not shown),HCT-116 empty vector,anchorage-independent growth,,,,GI50,15 ± 5 µM
Cc1c(O)c(C23CC4CC(CC(C4)C2)C3)cc2c1CC[C@@H]1[C@@H]2CC[C@]2(C)C(=O)CC[C@@H]12,HT-22,cell protection,,together with: glutamate 20 mM,,EC50,0.037 µM
Thrombospondin-1,endothelial cells,"endothelial cell migration, inhibitor",,,,effective concentration,< 20 nM
"C[C@]12CCC[C@@H]1[C@H]1CCc3cc(O)ccc3[C@@H]1CC2 (single isomer, unassigned)",HT-22,cell protection,,together with: glutamate 20 mM,,EC50,1.17 µM
Nc1nc2c(ncn2[C@@H]2O[C@@H]3COP(=O)(O)O[C@H]3[C@H]2O)c(=O)[nH]1,PDE4D,"cyclic nucleotide hydrolysis, substrate or inhibitor, isothermal titration calorimetry",,,,Km or Ki,24.5 µM
"C[C@@]12CC[C@H]3c4ccc(O)cc4CC[C@@H]3[C@H]1CC[C@H]2O (single isomer, unassigned)",HT-22,cell protection,,together with: iodoacetic acid 40 µM,,EC50,35 µM
MVGGVVIA,differentiated PC-12,"Aβ42-induced toxicity, inhibitor, MTT",peptide,"10-fold excess over Aβ42, 15 h, together with: Aβ42 5 µM",,viability,82 ± 4%
PACAP-27,NCI-H838,,,NG,,intracellular cAMP,increased
"PDGF-BB, human recombinant",Schwann cells,,,together with: 5 to 10 µM forskolin,,doubling time,1 to 2 days
C[C@]12CC[C@@H]3c4cc(C56CC7CC(CC(C7)C5)C6)c(O)cc4CC[C@H]3[C@@H]1CC[C@@H]2O,HT-22,cell protection,,together with: glutamate 10 mM,,EC50,0.023 µM
O=C(OCC12CC3CC(CC(C3)C1)C2)c1ccc(NCc2cc(O)ccc2O)cc1,NCI-60 panel,cell growth,,,,GI50,1.25 µM
Cl.c1csc(CNc2cc[nH]n2)c1,human peripheral blood lymphocytes,,,"2160 µg/mL, 4 + 16 h, range-finding, with or without S9",relative to: vehicle,mitotic index reduction,≥ 50%
CC(=O)c1cccc(N[C@H]2[C@H](N)[C@@](NC(=O)N(C)C)([C@H](C)O)[C@@](C)(O)[C@@]2(O)COC(=O)c2c(C)cccc2O)c1,RXF 393 (renal cancer),cell growth,,NCI screen data,,GI50,< 0.1 µM
Nc1nc2c(nc(Sc3ccc(Cl)cc3)n2C2OC3COP(O)(=S)OC3C2O)c(=O)[nH]1 (stereo not shown),PDE1C,"cyclic nucleotide hydrolysis, substrate or inhibitor, isothermal titration calorimetry",,,,Km or Ki,32.6 µM
CSc1ccc(/C=C2/C(C)=C(CC(=O)O)c3cc(F)ccc32)cc1,CHO expressing human APP Swedish,,,40 µM,relative to: untreated,Abeta42 secretion,~45%

# A few entries again:
Substance,target or system,test,test system,setting,how to read,measurement,value
MVGGVVIA,differentiated PC-12,"Aβ42-induced toxicity, inhibitor, MTT",peptide,"10-fold excess over Aβ42, 15 h, together with: Aβ42 5 µM",,viability,82 ± 4%
CSc1ccc(/C=C2/C(C)=C(CC(=O)O)c3cc(F)ccc32)cc1,CHO expressing human APP Swedish,,,40 µM,relative to: untreated,Abeta42 secretion,~45%
Nc1nc2c(nc(Sc3ccc(Cl)cc3)n2C2OC3COP(O)(=S)OC3C2O)c(=O)[nH]1 (stereo not shown),PDE1C,"cyclic nucleotide hydrolysis, substrate or inhibitor, isothermal titration calorimetry",,,,Km or Ki,32.6 µM
